Published values pooled from the literature.
Protocols differ between the studies behind these lines.
Target: Serine/threonine-protein kinase ULK2 (ULK2, Homo sapiens, UniProt Q8IYT8)
One construct used (Q8IYT8 1-1036): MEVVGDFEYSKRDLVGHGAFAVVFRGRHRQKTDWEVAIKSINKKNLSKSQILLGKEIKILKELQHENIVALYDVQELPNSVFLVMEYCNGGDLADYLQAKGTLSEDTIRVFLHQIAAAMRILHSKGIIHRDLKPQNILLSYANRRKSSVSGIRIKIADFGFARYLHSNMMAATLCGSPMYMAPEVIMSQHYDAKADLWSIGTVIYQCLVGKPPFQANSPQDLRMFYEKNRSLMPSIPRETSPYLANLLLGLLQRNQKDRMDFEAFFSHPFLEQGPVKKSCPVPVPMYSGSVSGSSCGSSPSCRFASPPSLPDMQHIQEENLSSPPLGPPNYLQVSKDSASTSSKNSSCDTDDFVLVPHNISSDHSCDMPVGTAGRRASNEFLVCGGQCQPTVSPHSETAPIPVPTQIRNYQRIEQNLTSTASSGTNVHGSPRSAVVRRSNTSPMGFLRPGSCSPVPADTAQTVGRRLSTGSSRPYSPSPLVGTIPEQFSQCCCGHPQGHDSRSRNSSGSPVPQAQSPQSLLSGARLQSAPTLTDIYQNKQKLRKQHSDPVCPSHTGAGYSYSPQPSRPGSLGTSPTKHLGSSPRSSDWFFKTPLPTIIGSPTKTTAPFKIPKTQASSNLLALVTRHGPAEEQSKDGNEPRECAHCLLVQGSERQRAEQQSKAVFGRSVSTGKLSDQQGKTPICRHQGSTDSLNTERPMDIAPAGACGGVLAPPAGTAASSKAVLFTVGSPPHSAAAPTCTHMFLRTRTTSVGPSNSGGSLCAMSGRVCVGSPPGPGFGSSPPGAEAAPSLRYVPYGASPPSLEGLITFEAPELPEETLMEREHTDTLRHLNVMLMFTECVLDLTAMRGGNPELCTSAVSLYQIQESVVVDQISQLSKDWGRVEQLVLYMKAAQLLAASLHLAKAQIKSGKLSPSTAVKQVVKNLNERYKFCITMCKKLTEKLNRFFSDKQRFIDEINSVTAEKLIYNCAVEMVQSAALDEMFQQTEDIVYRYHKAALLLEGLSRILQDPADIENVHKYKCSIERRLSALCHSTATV

SMILES = CCN1CCN(Cc2ccc(C(=O)Nc3ccc(C)c(NCc4cnc5[nH]ccc5c4OC)c3)cc2C(F)(F)F)CC1; test = binding, competition with immobilised ligand; conditions = 1 µM; endpoint = remaining binding; value = 81%
SMILES = COc1cc(Nc2nc(C)cc(-c3cnn4nc(OC)ccc34)n2)cc(C(F)(F)F)c1; test = binding, competition with immobilised ligand; conditions = 1 µM; endpoint = remaining binding; value = 92%
SMILES = O=C=[N][Ru-4]123([n]4c5ccc(O)cc5c5c6c(c7cc(F)c[n+]1c7c54)C(=O)NC6=O)[S+]1CC[S+]2CC[S+]3CC1 (stereo not drawn); test = enzyme activity; conditions = 100 nM, human enzyme, added: 10 µM ATP; scale = baseline: untreated; endpoint = remaining activity; value = 106%
SMILES = Nc1ncc2c(n1)-c1c([nH]c3ccc(C4=CCOCC4)cc13)CCC2; test = binding, competition with immobilised ligand; conditions = 1 µM; endpoint = remaining binding; value = 70%
SMILES = Cc1ccc(C(=O)Nc2ccc(CN3CCN(C)CC3)c(C(F)(F)F)c2)cc1C#Cc1cnc2cccnn12; test = target engagement, NanoBRET; system = human cells; endpoint = upper asymptote; value = 650
SMILES = COc1ccc(O)cc1-c1c[nH]c2ncc(-c3cncc(C(=O)N(C)C)c3)cc12; test = binding, competition with immobilised ligand; conditions = 0.2 µM; endpoint = inhibition; value = 8.85%
SMILES = COc1ccc(NC(=O)Nc2ccc3c(c2)C(=O)N(C(C)CO)CC(C)C(CN(C)Cc2ccc4c(c2)OCO4)O3)cc1 (stereo not drawn); test = binding, competition with immobilised ligand; conditions = 10 µM; endpoint = remaining binding; value = 100%
SMILES = Cc1nc2c(F)cc(-c3nc(Nc4ccc(CNC(=O)CCCCCCC(=O)NO)cc4)ncc3F)cc2n1C(C)C; test = enzyme activity, inhibitor; conditions = 1 µM; endpoint = inhibition; value = 20%
SMILES = CCn1cc(C(=O)O)c(=O)c2c(N)c(F)c(NC3CCCCC3)cc21; test = kinase activity; conditions = 0.1 µM, added: ATP at Km; endpoint = inhibition; value = -5.5%
SMILES = CN1CC[C@@H](COc2cnc(C#N)cc2-c2ccn3nc(NC(=O)C4CC4)cc3c2)C1; test = enzyme activity, inhibitor; conditions = 1 µM; endpoint = inhibition; value = 8%
SMILES = Cc1ccc(-c2c(/C=C(\C#N)C(=O)NC(C)C)n(CCCO)c3ncnc(N)c23)cc1; test = cell-free assay, competition with immobilised ligand; conditions = 1 µM; endpoint = remaining binding; value = 98%
SMILES = CCN1CCN(Cc2ccc(NC(=O)c3ccc(C)c(NC(=O)c4cncc(-c5cnn(C)c5)c4)c3)cc2C(F)(F)F)CC1; test = binding, competition with immobilised ligand; conditions = 1 µM; endpoint = remaining binding; value = 100%
SMILES = CNS(=O)(=O)Nc1nccc(Cc2c(C)c3ccc(Oc4ncccc4F)cc3oc2=O)c1F; test = binding, competition with immobilised ligand; conditions = 10 µM; endpoint = remaining binding; value = 92%
SMILES = CNC(=O)C[C@H](Cc1ccc(C#N)cc1)NC(=O)c1cc(-c2ccc(CN[C@H](C)c3ccc(C)cc3)o2)ccc1Cl; test = enzyme activity, inhibitor; conditions = 1 µM; endpoint = activity vs control; value = 105%
SMILES = NC(=O)[C@@H](O)C[C@H]1CCc2sc3ncnc(O[C@H]4CC[C@H](N5CCOCC5)CC4)c3c21; test = enzyme activity, inhibitor; conditions = 10 µM; endpoint = inhibition; value = 1%
SMILES = CN1CCN(Cc2ccc(NC(=O)c3cccc(C#Cc4cnc(N)c5ncccc45)c3)cc2C(F)(F)F)CC1; test = cell-free assay, competition with immobilised ligand; conditions = 0.5 µM; endpoint = remaining binding; value = 95%
SMILES = CN1CCN(Cc2ccc(-c3ccc(CO[C@H]4CCC[C@@H]4NC(=O)c4cc(-c5cnn(C)c5)cnc4N)cc3)cc2)CC1; test = enzyme activity, inhibitor; conditions = 0.1 µM; endpoint = inhibition; value = 1%
SMILES = C=C1CCCCCCCCCC(CO)C1=O (stereo not drawn); test = cell-free assay, competition with immobilised ligand; conditions = 10 µM; endpoint = remaining binding; value = 58%

Repeated from above:
SMILES = O=C=[N][Ru-4]123([n]4c5ccc(O)cc5c5c6c(c7cc(F)c[n+]1c7c54)C(=O)NC6=O)[S+]1CC[S+]2CC[S+]3CC1 (stereo not drawn); test = enzyme activity; conditions = 100 nM, human enzyme, added: 10 µM ATP; scale = baseline: untreated; endpoint = remaining activity; value = 106%
